# Results pooled from the literature.
# Protocols differ between the studies behind these lines. Values joined by “and” are separate records of one study, mostly repeats; a detail may differ.
# Target: Serine/threonine-protein kinase TAO2 (TAOK2, Homo sapiens, UniProt Q9UL54)
# Residues used in one study (Q9UL54 1-1235): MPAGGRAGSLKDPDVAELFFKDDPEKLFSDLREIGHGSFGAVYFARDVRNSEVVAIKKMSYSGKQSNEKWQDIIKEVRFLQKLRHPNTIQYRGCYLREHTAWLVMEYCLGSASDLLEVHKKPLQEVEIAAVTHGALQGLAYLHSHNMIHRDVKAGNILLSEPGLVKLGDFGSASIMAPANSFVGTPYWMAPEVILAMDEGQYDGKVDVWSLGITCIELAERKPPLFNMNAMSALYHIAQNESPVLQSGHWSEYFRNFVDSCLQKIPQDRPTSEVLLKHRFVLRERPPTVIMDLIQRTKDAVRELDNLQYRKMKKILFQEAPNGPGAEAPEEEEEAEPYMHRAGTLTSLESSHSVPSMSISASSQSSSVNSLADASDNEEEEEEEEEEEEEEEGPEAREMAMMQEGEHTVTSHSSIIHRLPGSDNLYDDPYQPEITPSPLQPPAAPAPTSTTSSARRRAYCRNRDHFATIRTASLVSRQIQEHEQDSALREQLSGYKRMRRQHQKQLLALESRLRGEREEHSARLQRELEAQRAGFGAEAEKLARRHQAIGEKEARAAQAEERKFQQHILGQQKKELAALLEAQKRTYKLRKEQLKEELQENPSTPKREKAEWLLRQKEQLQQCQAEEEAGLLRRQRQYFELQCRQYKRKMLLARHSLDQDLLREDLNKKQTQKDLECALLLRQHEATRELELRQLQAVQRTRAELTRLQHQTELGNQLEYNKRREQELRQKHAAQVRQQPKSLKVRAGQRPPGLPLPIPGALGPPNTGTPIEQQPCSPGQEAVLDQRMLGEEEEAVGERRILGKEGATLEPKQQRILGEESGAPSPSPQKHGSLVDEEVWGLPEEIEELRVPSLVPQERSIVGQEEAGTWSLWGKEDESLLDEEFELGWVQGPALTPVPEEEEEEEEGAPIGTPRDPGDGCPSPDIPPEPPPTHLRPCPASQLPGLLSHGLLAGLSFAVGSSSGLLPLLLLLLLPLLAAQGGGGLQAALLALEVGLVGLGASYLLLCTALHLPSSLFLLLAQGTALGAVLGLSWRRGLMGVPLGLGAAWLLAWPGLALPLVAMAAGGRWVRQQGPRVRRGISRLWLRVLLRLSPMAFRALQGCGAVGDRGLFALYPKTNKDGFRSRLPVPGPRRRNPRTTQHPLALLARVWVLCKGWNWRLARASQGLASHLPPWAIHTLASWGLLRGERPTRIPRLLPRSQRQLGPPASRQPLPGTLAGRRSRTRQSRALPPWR
SMILES,test,test system,setting,scale,measurement,value
COc1ccc(NC(=O)Nc2ccc3c(c2)C(=O)N(C(C)CO)CC(C)C(CN(C)Cc2ccc4c(c2)OCO4)O3)cc1 (stereo not shown),"kinase activity, KinaseProfiler",,"0.03 µM, species human",baseline: control,remaining activity,104%
C=CC(=O)Nc1cccc(-c2cnc3[nH]cc(C(=O)NC(C)(C)C)c3n2)c1,"enzyme activity, inhibitor",,0.1 µM,,inhibition,6%
CCn1cc(C(=O)O)c(=O)c2c(N)c(F)c(NC3CCCCC3)cc21,kinase activity,,"0.1 µM, added: ATP at Km",,inhibition,5.4%
C=CC(=O)Nc1cc(-c2nn(C3CCN(CCNC(=O)[C@H](C)CCC45CC6CC(CC(C6)C4)C5)CC3)c3ncnc(N)c23)ccc1Oc1ccccc1,"inhibitor, KiNativ profiling",biochemical,2 µM,,inhibition,13.6%
COc1ccc(C(=O)/C=C/c2ccccc2-c2c[nH]c3ccc(C#N)cc23)c(O)c1,"enzyme activity, inhibitor",,20 µM,,inhibition,-3%
COCC12C(=O)NC3C4(C(OC)CC1O)C1CC5(O)C(OC)C(O)C(OC(C)=O)(C1C5OC(=O)c1ccccc1)C3(O)C(OC)C24 (stereo not shown),"kinase activity, inhibitor, ProQinase kinase profiling",,25 µM,baseline: control,remaining activity,99% and 129%
COc1c(OCCCN2CCOCC2)ccc2c1N=C(NC(=O)c1cnc(N)nc1)N1CCN=C21,"kinase activity, inhibitor",,1 µM,baseline: untreated control,remaining activity,107%
O=C=[N][Ru-4]123([n]4c5ccc(O)cc5c5c6c(c7cc(F)c[n+]1c7c54)C(=O)NC6=O)[S+]1CC[S+]2CC[S+]3CC1 (stereo not shown),enzyme activity,,"100 nM, human enzyme, added: 10 µM ATP",baseline: untreated,remaining activity,103%
O=C(Cc1ccc(OCc2ccccc2)cc1)NC1(C(=O)O)CCN(C(=O)c2ccc(-c3cccc(Cl)c3)cc2)CC1,"enzyme activity, inhibitor",,10 µM,,activity vs control,89%
CN1CCN(Cc2ccc(-c3ccc(CO[C@H]4CCC[C@@H]4NC(=O)c4cc(-c5cnn(C)c5)cnc4N)cc3)cc2)CC1,SelectScreen kinase profiling,,0.1 µM,,inhibition,12%
NC(=O)C[C@H]1CCc2sc3ncnc(O[C@H]4CC[C@H](N5CCOCC5)CC4)c3c21,radioisotope kinase,,10 µM,,inhibition,0%
COc1cc(Nc2nc(C)cc(-c3cnn4nc(OC)ccc34)n2)cc(C(F)(F)F)c1,"binding, competition with immobilised ligand",,1 µM,,remaining binding,77%
CNC(=O)C1CCN(c2cc(C)c(F)cc2NC(=O)c2ccc(-c3cc(O)ccc3C)c(C)c2)CC1,"binding, competition with immobilised ligand",,1 µM,,remaining binding,95%
Nc1ncc(-c2cc(-c3cnn(CC(F)(F)F)c3)ncc2F)nc1C(=O)NC1CNCC(F)C1 (stereo not shown),enzyme activity,,1 µM,baseline: DMSO control,remaining activity,77.7%
Cc1cccc(O[C@H]2CCC[C@@H](C(C)CNCc3ccncc3)C2)c1 (relative stereo),"enzyme activity, inhibitor",,10 µM,,inhibition,-7%
Cc1ccc(-c2c(/C=C(\C#N)C(=O)NC(C)C)n(CCCO)c3ncnc(N)c23)cc1,"cell-free assay, competition with immobilised ligand",,1 µM,,remaining binding,100%
